Measured values collected from several papers.
Each numbered part is a random draw from the data of one study; scales do not carry over between parts. Substitutions count along the parent as printed.

Sample 1 — target: CCNA2, cyclin fold, Cln2 fusion (human); method: yeast growth competition, sequencing; matrix: yeast; setting: strong parent motif; reference: not given; reading: higher = stronger binding
Starting sequence: GMNC docking peptide (human); KNAKRNLSSEFAN
`KNAKRNDSSEFAN [L7D]`: “normalised enrichment score” 0.731.
Under “normalised enrichment score”, `KNAKTNLSSEFAN [R5T]` is recorded as 0.328.
Under “normalised enrichment score”, `KNAKRNLISEFAN [S8I]` is recorded as 5.63.
`KNAKGNLSSEFAN [R5G]` — result for “normalised enrichment score”: 0.526.
For `KNAKRNLRSEFAN [S8R]`, “normalised enrichment score” read 2.37.
`KNAKRNCSSEFAN [L7C]`: “normalised enrichment score” 0.741.
`KNAKRNLSSCFAN [E10C]`: “normalised enrichment score” 2.84.

Sample 2 — method: RNA Bind-n-Seq; form: RNA; matrix: in vitro; concentration: 1 µM; setting: whole 134-nt RNA, ends assumed; with: 150 mM KCl; reference: input library; reading: higher = stronger binding
Target: Ras GTPase-activating protein-binding protein 1, C-terminal RGG region (G3BP1, Homo sapiens, UniProt Q13283)
UniProt Q13283, sequence (whole entry, looked up): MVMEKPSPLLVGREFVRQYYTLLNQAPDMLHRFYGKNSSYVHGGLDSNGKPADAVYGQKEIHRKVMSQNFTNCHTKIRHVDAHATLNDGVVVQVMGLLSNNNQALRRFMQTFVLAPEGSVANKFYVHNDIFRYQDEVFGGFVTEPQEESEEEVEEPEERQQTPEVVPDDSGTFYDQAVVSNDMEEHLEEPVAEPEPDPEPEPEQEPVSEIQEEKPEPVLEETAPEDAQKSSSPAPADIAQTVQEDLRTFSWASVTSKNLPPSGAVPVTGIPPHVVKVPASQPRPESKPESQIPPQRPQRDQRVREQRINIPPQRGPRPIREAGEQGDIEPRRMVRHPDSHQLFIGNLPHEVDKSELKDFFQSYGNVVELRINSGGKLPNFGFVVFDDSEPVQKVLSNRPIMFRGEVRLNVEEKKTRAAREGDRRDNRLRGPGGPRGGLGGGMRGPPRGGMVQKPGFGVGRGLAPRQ
All sequences stand within: GGGAGUUCUACAGUCCGACGAUC … UGGAAUUCUCGGGUGUCAAGG
With `ACCAUGCAGGUGGGCAUCUUUGAAAAGUGGGGCAAGGGGGGGAUAGGGAGGGGGGUAACACUUUGGGAACAGGUGGUCCCAGGUCGUUUC` the log2 enrichment was -1.16.
`AGUCCUGUGCUACACAUCGUAUGUACCGAAUCAAACCCCCCCAAAUUUAAACCCAAAAAAGUAUUAUGUUACGCCGUUCGGAUCUGCACU` has a log2 enrichment of -0.832.
For `AAGUCCUGUGCUACACAUCGUAUGUACCGAAUCGGUUUGGUUUUUUUGGUUUUUGGAAAGUAUUAUGUUACGCCGUUCGGAUCUGCACUU`, the log2 enrichment was -1.79.
For `ACCAUGCAGGUGGGCAUCUUUGGGAAGUGGGGCAAGGGGGGGAUAGGGGGGGGGGUAACACUUUGGGAACAGGUGGUCCCAGGUCGUUUC`, the log2 enrichment was 2.27.
With `GAAAUACCAUCGGAAGACGAUGGGACGGUGCUGCUCUCCACGGUUACAGCCCAGUUUCCAGGGGCGUGUGGGCUUCGCUACAGGAAUCCA` the log2 enrichment was -0.988.
`UGGCCCUGGUGGCAUGCGGGGAGGAAGAAGUGGCCUCAUGGAUCGUGGUGGUCCCGGUGGAAUGUUCAGAGGUGGCCGUGGUGGAGACAG` gave a log2 enrichment of 1.87.
The log2 enrichment of `CUGUGCUACACAUCGUAUGUACCGAAUCGGGGAAAAAAAGGAAAAAAAGGGGAAAAAAAGGAAAGUAUUAUGUUACGCCGUUCGGAUCUG` is reported as -1.41.

Sample 3 — method: RNA Bind-n-Seq; form: RNA; matrix: in vitro; concentration: 365 nM; reference: no-protein control; reading: higher = stronger binding
Target: RNA binding protein fox-1 homolog 2, RRM domain, GST-SBP tag (RBFOX2, Homo sapiens, UniProt O43251-10, residues 100-194)
Setting: natural RNA segment, single round, ends assumed
All sequences stand within: GGGAGUUCUACAGUCCGACGAUC … UGGAAUUCUCGGGUGCCAA
Construct (chain): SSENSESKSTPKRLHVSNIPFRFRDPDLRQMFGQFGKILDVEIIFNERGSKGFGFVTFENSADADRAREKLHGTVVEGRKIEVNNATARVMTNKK
`CUUCCUUGGGCCUUUACUUCUUUUCUUCCUCCUUGGUUUCAGUUCCCAUGUGCUAUCAUUAUAAUCAUGCAGACUUUUACUUCAGUUGCUUCUGAAAGCACUAAGUUUUC`: “RBNS enrichment (R)” 0.399.
For `GUUGGUCCUUGAUGGCUGUCCCCUCCACCCUACCCCUGAGAAGGGAAGCUGCCCGUUGCUGCUACUGCACCUCACCACCAACUCCCUCAUGGACAGACAGAUCCCUGAUG`, “RBNS enrichment (R)” read 0.694.
`UGGACAGACCUGGUGUCACCAGUUUUUCCUAGCAUCAGUCCGAACCAUGCGCCCGCCCUGCCCCAACUGUGUGCUGGUCCUGCUGUGGCCGAGGGGACCGGGUGUGUUUG` — result for “RBNS enrichment (R)”: 0.717.
`CCAAAUUUAAUACAUGUGAUUUGUGAUAUGUAGCUAAACUUAAUCCAGCUAAUGAAUAUUCUUCAUCUGUAACUUGUAGUAAAAUAGCUUUUACCUAACCCUUUUCCCAA` — result for “RBNS enrichment (R)”: 0.65.
For `UGGACUCUGAUGAAGAUGACGAUUAUUGACUACAAGUGCUCACAGACUAGAACUUAACGGAACAAGUCUAGGACAGAAGUUAAGAUCUGAUUAUUUACUUUGUUUAUUGU`, “RBNS enrichment (R)” read 0.314.
For `AGGUGGCAUCUGACUGCGGCUCAUACAGGUCACCCUGAAGGGCCACGUGCUUUUAGCAGUUGGCUGGAAUGUGUUCACUAGGUUCCGUUAUGUUUGGUAAUAUCAUCUUG`, “RBNS enrichment (R)” read 0.689.
`CUGUGUGGAGUCUGUGAGUGUGCUCUUGAGUAGCGUGGGCUAGCCAAUCUGCCAUUCAUGGUGUUAUAAACUCGGAAUUCCAUAUGUAAUAGGAUGCAAGUCUAAGCGUU` — result for “RBNS enrichment (R)”: 0.253.
For `UUCUUGUACAUUUGACAACACAUUGAGGAAAACCCUAUAAACAUAAUCAAGAGGGGACAUUUUUCAUUAAGAGUUCAGUAAGACUUCUCCCACAUUAUUUACUAGAAAAU`, “RBNS enrichment (R)” read 0.699.
Under “RBNS enrichment (R)”, `AGAUAUUUGGGGGUUAUUCGGGUUAUGGCCCAUUUAUUUCCCUCUUCCCCCUGAAUUGACCAGUAGCAGCUCCAGCCCCAUUUCACAAAAGUGAGUUUGGCCAGGAGGAA` is recorded as 0.317.
`UUGUAUUUGUUGUGUUUAAGAACCAUUAAUGUAUUAUGUAAAAUUAAAUUUUAAAUGGAAUAUUUUAAACUGAUACAGUGGUGUAUGUGUGUGUAUAUGUAAUUUUCUUA` — result for “RBNS enrichment (R)”: 1.99.

Mixed results
For `PhoQ, residues 284 288 289 292 302 303 QWQEDG`, the fold induction was 4.76 (PhoP, residues 12 14 15 18 19 SEGLL (Escherichia coli, UniProt P23836); Sort-seq, refers to: YFP reporter; E. coli; PhoQ-PhoP variant library, with: 10 µM Mg2+; reference: high Mg2+ state, higher = stronger signaling).

Some of these lines once more (sample 1):
`KNAKRNLSSCFAN [E10C]`: “normalised enrichment score” 2.84.
`KNAKRNCSSEFAN [L7C]`: “normalised enrichment score” 0.741.
For `KNAKRNLRSEFAN [S8R]`, “normalised enrichment score” read 2.37.
